Experimental data from different studies.
Compare with care: the assays were run in different laboratories. Several values in a cell are separate wells, animals, samples, runs or records. ± gives the spread as reported.
CDK4: Cyclin-dependent kinase 4 (CDK4, Homo sapiens, UniProt P11802)
UniProt P11802, sequence (whole entry, looked up): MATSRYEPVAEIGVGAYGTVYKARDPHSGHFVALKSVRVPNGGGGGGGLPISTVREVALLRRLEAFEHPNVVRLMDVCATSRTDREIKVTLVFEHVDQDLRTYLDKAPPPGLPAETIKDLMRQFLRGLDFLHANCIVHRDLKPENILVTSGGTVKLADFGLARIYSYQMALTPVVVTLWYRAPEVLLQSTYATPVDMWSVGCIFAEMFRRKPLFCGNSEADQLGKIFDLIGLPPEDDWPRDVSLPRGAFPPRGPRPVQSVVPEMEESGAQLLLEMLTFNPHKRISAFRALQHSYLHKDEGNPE
DDR2: Discoidin domain-containing receptor 2 (DDR2, Homo sapiens, UniProt Q16832)
UniProt Q16832, sequence (whole entry, looked up): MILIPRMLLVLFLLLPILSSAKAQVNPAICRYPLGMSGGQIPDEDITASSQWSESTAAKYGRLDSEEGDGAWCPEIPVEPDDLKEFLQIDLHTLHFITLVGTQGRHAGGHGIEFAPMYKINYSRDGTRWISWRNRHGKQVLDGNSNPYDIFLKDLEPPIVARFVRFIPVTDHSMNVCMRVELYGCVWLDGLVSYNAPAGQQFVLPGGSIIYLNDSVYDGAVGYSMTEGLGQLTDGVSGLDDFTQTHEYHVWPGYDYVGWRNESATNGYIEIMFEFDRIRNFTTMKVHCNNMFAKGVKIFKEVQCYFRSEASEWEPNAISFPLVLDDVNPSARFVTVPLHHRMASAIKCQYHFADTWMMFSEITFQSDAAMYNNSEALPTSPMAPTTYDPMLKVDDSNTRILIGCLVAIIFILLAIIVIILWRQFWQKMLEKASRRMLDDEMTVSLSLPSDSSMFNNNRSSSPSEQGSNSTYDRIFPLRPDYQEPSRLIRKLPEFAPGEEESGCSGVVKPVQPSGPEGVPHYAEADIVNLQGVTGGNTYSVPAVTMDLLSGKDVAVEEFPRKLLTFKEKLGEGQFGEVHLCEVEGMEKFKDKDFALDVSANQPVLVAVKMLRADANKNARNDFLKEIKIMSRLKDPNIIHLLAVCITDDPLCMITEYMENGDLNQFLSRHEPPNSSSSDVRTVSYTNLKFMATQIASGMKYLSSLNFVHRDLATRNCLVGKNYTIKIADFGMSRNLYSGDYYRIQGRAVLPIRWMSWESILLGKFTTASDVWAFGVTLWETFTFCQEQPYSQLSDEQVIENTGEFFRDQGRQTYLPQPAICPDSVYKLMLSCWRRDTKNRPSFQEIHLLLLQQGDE
MAOA: Amine oxidase [flavin-containing] A (MAOA, Homo sapiens, UniProt P21397)
UniProt P21397, sequence (whole entry, looked up): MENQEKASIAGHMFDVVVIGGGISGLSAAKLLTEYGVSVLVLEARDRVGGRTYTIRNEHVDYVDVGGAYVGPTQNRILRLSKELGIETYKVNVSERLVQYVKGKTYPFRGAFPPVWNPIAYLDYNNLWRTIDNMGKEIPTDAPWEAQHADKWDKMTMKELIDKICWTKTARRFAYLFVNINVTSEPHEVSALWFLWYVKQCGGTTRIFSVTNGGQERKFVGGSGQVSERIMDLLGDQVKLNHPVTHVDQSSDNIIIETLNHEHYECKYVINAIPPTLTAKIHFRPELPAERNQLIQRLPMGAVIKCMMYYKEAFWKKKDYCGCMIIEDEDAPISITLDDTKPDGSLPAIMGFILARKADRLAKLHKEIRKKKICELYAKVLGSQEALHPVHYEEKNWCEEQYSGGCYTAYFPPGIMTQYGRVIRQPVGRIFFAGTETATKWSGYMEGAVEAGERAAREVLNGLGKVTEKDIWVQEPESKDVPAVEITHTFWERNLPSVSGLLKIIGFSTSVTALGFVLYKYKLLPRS
MAPKAPK5: MAP kinase-activated protein kinase 5 (MAPKAPK5, Homo sapiens, UniProt Q8IW41)
UniProt Q8IW41, sequence (whole entry, looked up): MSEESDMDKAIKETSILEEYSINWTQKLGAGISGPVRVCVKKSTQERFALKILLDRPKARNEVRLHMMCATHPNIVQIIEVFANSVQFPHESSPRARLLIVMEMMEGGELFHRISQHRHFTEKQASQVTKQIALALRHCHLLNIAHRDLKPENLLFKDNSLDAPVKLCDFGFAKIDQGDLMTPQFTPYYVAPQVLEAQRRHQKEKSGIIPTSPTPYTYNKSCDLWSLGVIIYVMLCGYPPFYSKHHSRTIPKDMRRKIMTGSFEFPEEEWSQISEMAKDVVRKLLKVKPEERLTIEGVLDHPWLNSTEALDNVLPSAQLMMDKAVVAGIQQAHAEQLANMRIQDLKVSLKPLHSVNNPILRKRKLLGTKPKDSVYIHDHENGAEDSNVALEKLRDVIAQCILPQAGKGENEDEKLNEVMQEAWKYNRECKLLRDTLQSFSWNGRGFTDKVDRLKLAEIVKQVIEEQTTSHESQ
Gria2: Glutamate receptor 2 (Gria2, Rattus norvegicus, UniProt P19491)
UniProt P19491, sequence (whole entry, looked up): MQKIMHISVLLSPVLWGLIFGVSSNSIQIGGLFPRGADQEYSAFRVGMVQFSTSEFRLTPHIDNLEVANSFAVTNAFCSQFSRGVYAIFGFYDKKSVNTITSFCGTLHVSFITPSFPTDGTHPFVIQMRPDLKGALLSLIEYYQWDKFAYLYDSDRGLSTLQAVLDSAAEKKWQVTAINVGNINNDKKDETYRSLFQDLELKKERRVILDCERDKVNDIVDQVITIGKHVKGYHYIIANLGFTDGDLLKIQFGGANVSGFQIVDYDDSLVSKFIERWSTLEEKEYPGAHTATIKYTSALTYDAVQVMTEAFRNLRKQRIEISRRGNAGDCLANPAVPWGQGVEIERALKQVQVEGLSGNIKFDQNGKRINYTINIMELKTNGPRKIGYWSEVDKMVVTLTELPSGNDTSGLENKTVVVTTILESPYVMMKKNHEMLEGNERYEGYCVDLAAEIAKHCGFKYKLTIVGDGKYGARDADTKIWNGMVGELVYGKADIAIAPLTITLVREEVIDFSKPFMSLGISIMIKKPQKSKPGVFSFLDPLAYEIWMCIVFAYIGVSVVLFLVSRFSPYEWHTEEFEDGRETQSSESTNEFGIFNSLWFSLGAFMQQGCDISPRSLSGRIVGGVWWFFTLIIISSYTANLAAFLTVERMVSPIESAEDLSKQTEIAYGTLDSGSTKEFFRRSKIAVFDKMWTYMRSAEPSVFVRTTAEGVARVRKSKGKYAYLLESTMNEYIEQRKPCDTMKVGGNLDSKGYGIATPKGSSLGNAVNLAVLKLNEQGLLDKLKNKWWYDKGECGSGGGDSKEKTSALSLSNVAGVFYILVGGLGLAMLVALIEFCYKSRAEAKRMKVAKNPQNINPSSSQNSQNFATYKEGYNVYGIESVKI
MARS2: Methionine--tRNA ligase, mitochondrial (MARS2, Homo sapiens, UniProt Q96GW9)
UniProt Q96GW9, sequence (whole entry, looked up): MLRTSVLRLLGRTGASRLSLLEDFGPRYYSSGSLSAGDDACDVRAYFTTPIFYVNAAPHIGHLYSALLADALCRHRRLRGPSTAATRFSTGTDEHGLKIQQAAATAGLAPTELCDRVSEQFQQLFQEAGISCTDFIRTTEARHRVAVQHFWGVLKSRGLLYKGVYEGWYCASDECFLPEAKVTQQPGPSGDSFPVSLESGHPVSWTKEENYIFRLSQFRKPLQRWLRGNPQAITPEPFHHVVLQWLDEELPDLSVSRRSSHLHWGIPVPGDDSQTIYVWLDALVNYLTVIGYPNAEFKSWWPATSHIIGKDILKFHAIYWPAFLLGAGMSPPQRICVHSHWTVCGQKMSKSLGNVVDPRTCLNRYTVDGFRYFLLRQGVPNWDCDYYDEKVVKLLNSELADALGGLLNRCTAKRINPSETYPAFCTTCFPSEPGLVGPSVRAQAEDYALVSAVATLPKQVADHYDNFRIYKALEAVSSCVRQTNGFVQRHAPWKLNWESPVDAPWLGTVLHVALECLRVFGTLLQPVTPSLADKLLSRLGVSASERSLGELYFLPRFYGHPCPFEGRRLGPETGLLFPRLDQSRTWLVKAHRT
VKORC1: Vitamin K epoxide reductase complex subunit 1 (VKORC1, Homo sapiens, UniProt Q9BQB6)
UniProt Q9BQB6, sequence (whole entry, looked up): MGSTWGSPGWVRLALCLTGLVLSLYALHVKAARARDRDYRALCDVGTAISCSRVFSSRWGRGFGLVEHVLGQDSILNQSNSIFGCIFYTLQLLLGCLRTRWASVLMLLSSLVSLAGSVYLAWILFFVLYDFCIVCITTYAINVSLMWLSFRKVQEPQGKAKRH
SIRT5: NAD-dependent protein deacylase sirtuin-5, mitochondrial (SIRT5, Homo sapiens, UniProt Q9NXA8)
UniProt Q9NXA8, sequence (whole entry, looked up): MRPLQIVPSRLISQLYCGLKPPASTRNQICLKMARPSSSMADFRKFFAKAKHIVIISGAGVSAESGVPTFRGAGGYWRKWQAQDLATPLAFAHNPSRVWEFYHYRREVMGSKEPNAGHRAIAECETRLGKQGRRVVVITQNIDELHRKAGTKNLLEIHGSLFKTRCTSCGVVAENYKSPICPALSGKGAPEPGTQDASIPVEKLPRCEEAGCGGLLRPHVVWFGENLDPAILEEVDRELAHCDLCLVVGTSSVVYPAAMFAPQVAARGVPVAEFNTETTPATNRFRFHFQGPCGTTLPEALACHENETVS
UniProt O15530, sequence (whole entry, looked up): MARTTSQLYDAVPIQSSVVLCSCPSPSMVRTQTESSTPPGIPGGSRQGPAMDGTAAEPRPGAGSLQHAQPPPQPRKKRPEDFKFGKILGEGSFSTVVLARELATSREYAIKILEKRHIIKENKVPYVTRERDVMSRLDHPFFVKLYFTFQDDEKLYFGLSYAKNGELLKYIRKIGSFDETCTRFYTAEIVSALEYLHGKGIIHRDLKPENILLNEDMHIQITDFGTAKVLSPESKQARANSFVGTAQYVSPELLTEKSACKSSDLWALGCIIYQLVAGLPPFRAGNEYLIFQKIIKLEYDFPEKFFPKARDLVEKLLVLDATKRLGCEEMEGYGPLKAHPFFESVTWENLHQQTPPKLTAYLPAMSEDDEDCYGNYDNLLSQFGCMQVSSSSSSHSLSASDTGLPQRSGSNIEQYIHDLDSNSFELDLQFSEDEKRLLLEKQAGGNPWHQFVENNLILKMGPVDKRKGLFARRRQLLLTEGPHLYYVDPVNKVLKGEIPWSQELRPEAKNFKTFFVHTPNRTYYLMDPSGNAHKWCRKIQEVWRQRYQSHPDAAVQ
UniProt Q9Y6W8, sequence (whole entry, looked up): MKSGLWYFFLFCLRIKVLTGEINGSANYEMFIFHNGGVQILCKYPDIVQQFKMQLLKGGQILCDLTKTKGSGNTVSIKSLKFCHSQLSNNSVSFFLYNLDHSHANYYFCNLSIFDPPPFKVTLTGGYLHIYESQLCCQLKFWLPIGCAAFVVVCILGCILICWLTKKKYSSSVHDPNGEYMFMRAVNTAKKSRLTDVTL

With `COC(=O)CCCCC(=O)NCc1ccc(Nc2ncc(F)c(-c3cc(F)c4nc(C)n(C(C)C)c4c3)n2)cc1` the IC50 was 1 nM (CDK4).
`CNC(=O)CN1CN(c2ccccc2)C2(CCN(C(=O)c3cnc4[nH]ccc4c3)CC2)C1=O` gave an IC50 of > 167000 nM (DDR2; ligand displacement).
For `C/C1=C\CC/C(C)=C/CC(C)(C)/C=C/C1`, the IC50 was 18000 nM (Transient receptor potential cation channel subfamily V member 4 (TRPV4, Homo sapiens, UniProt Q9HBA0); ion current, patch clamp).
With `Cc1nc2c(F)cc(-c3nc(Nc4ccc(C(=O)NCCCCCCC(=O)NO)cc4)ncc3F)cc2n1C(C)C` the IC50 was 1.6 nM (CDK4).
For `Cc1cc(NC2CCN(C)CC2)ccc1-c1cc2c(N3CCC[C@H](C(=O)NCc4ccc(OC(F)(F)F)cc4)C3)ncnc2[nH]1`, the IC50 was > 8000 nM (3-phosphoinositide-dependent protein kinase 1 (PDPK1, Homo sapiens, UniProt O15530); enzyme activity, inhibitor, mobility shift).
For `CCCC[C@H](NC(=O)CNC(=O)CNC(=O)[C@H](CCCCNC(=O)[C@H](CCN)NC(=O)C(C)c1ccc(CC(C)C)cc1)NC(=O)CN1CCN(CC(=O)O)CCN(CC(=O)O)CCN(CC(=O)O)CC1)C(=O)N[C@H]1CC(=O)NCCCC[C@@H](C(N)=O)NC(=O)[C@H](Cc2c[nH]c3ccccc23)NC(=O)[C@H](CCCNC(=N)N)NC(=O)[C@@H](Cc2ccccc2)NC(=O)[C@H](Cc2c[nH]cn2)NC1=O` (stereo partly drawn), the IC50 was 0.58 ± 0.06 nM (Melanocyte-stimulating hormone receptor (Mc1r, Mus musculus, UniProt Q01727); radioligand binding, competitor; B16-F10 mouse melanoma; 2 h, 25 °C, with: radiolabelled NDP-MSH).
`Fc1ccc(Nc2nc(NC3CCCCC3)c3cc(C(F)(F)F)ccc3n2)cc1F` has an IC50 of 794 nM (Beta-2 adrenergic receptor (ADRB2, Homo sapiens, UniProt P07550, V152G); β-arrestin2 recruitment, antagonist, BRET; HEK293; mutant V152G, with: isoprenaline 1 µM).
`CC(C)c1ccc(/C=C/C(=O)c2ccc(S(C)(=O)=O)cc2)cc1` has an IC50 of > 40000 nM (MAOA; enzyme activity, inhibitor).
`N#Cc1ccc(Nc2nc(N)cc(Oc3c(F)cc(-c4cccc(C#N)c4)cc3F)n2)cc1` gave an IC50 of 120 nM (Gag-Pol polyprotein, reverse transcriptase (gag-pol, Human immunodeficiency virus 1, UniProt P03366); enzyme activity, inhibitor).
`CCCCCCCCCCCCCCN(O)C(=O)CCCCC[C@@H]1NC(=O)[C@H]([C@@H](C)CC)NC(=O)[C@H](Cc2ccccc2C(F)(F)F)NC(=O)CCSCc2cccc(n2)CSCCCNC1=O` gave an IC50 of 90 nM (Histone deacetylase 11 (HDAC11, Homo sapiens, UniProt Q96DB2); enzyme activity, inhibitor, fluorescence).
`Cc1nn(-c2cccc(N)c2)c(=O)c2cnc(Nc3ccc(N4CCNCC4)cc3)nc12` has an IC50 of > 10000 nM (MAPKAPK5; enzyme activity, inhibitor).
`Cc1cc(C(=O)N[C@H](C(=O)Nc2cccc(C(N)=O)c2)c2ccc(OCc3ccccc3)cc2)n(Cc2ccccc2)n1` gave an IC50 of 8600 nM (Genome polyprotein, NS2B-NS3 protease (dengue virus type 2, UniProt P29990); enzyme activity; with: AMC substrate 50 µM).
The IC50 of `Cc1cc(O)c2c(c1)C(=O)c1c(O)c(O)cc(O)c1C2=O` is reported as 20800 nM and ~20000 nM (MAOA; enzyme activity, inhibitor).
The IC50 of `COc1ccc(-c2cc(OCC(=O)N(C)Cc3cccnc3C)nc(-n3nc(C)cc3C)n2)cc1` is reported as 34000 nM (Leucyl-cystinyl aminopeptidase (LNPEP, Homo sapiens, UniProt Q9UIQ6); 10mer peptide trimming, HPLC; 45 min, 37 °C, with: peptide 30 µM).
`COC(=O)CCCCCNC(=O)Cc1ccc(Nc2ncc(F)c(-c3cc(F)c4nc(C)n(C(C)C)c4c3)n2)cc1` gave an IC50 of 2 nM (CDK4).
`CC(=O)N[C@@H](CC(C)C)C(=O)N[C@H](C(=O)N[C@@H](Cc1ccccc1)C(=O)N[C@]1(C)CCCCCCC=CCCC[C@@](C)(C(=O)N[C@@H](CO)C(N)=O)NC(=O)[C@H](CC(C)C)NC(=O)[C@H](CCC(N)=O)NC(=O)[C@H](C)NC(=O)[C@H](Cc2c[nH]c3ccccc23)NC(=O)[C@H](Cc2ccc(O)cc2)NC(=O)[C@H](CCC(=O)O)NC1=O)[C@@H](C)O` has an IC50 of 42 nM (E3 ubiquitin-protein ligase Mdm2 (MDM2, Homo sapiens, UniProt Q00987); ligand displacement, FP).
For `O=S(=O)(O)c1cc(O)c2ccc(Nc3ccc4c(O)cc(S(=O)(=O)O)cc4c3)cc2c1`, the IC50 was 3800 nM (Three-prime repair exonuclease 1 (Trex1, Mus musculus, UniProt Q91XB0); enzyme activity, inhibitor).
With `CCOc1cc(CN2CCC3(CC2)CN(c2ccc(C(=O)O)cc2)C(=O)N3)c(C2CC2)cc1C` the IC50 was 13.5 nM (Somatostatin receptor type 5 (SSTR5, Homo sapiens, UniProt P35346, D119A); cAMP level, antagonist, GloSensor; AD293; D119A mutant, bandwidth 3.32, with: CST17 EC80 and forskolin).
`CN1CCc2cc(Br)c(O)cc2C(c2ccc(NC(=O)CCOCCOCCOCCOCCn3cc(COCCOCCOCCOCCOCCC(=O)NCCc4c[nH]cn4)nn3)cc2)C1` (stereo not drawn) has an IC50 of 955 nM (D(1A) dopamine receptor (DRD1, Homo sapiens, UniProt P21728); cell-based).
With `O=C(CN1CN(c2cccc(Cl)c2)C2(CCN(C(=O)c3cnc4[nH]ncc4c3)CC2)C1=O)NCC(F)(F)F` the IC50 was 2390 nM (DDR2; ligand displacement).
The IC50 of `C[C@H]1CN(c2cc(=O)n(C)c3ccc(C#N)nc23)[C@@H](C)CN1Cc1ccc(S(=O)(=O)n2cnc(C3CC3)n2)cc1` is reported as 2320 nM (Diacylglycerol kinase alpha (DGKA, Homo sapiens, UniProt P23743); inhibitor, ADP-Glo; with: DAG micelles).
`COC(=O)CCCC(=O)NCc1ccc(Nc2ncc(F)c(-c3cc(F)c4nc(C)n(C(C)C)c4c3)n2)cc1` has an IC50 of 1.2 nM (CDK4).
The IC50 of `O=C(O)Cc1cc2c(cc1C(=O)c1ccc(Cl)cc1Cl)OCO2` is reported as 3730 nM (Gria2; ion current, patch clamp).
For `C[C@@H](CNCc1cc(Cl)cc(Cl)c1)CNc1nc2nc(F)ccc2[nH]1`, the IC50 was 19.5 nM (MARS2; enzyme activity, inhibitor).
`Cc1nc2c(F)cc(-c3nc(Nc4ccc(C(=O)NCCCCCCCC(=O)NO)cc4)ncc3F)cc2n1C(C)C` has an IC50 of 1.6 nM (CDK4).
`O=C(CN1CN(c2ccccc2)C2(CCN(C(=O)c3ccc4[nH]ncc4c3)CC2)C1=O)NCCN1CCOCC1` has an IC50 of 1640 nM (DDR2; ligand displacement).
`CC1(C)C(=O)N=C2C1=C(O)C(=O)c1ccccc12` gave an IC50 of > 100000 nM (Protein arginine N-methyltransferase 1 (PRMT1, Homo sapiens, UniProt Q99873); enzyme activity, inhibitor).
With `CC(C)C[C@@H]1NC(=O)[C@H](C(C)C)NC(=O)[C@H](Cc2c[nH]c3ccccc23)NC(=O)[C@@H]2CSSC[C@H](NC(=O)[C@H](Cc3ccc(O)cc3)NC(=O)[C@H](C(C)C)NC(=O)[C@H](CCCNC(=N)N)NC(=O)CNC(=O)[C@H]3CCCN3C1=O)C(=O)N[C@@H](CCC(N)=O)C(=O)N1CCC[C@H]1C(=O)NCC(=O)N[C@@H](Cc1c[nH]c3ccccc13)C(=O)N2` the IC50 was 22900 ± 5470 nM (Inducible T-cell costimulator, with ICOS ligand (Homo sapiens, UniProt Q9Y6W8); ICOS/ICOS-L binding, inhibitor, TR-FRET).
With `COCCNC(=O)Cn1nc2c3ccccc3nc(C)n2c1=O` the IC50 was > 100000 nM (VKORC1; carboxylation, inhibitor, ELISA; HEK293 stably expressing; 24 h, with: vitamin K epoxide 5 µM).
`CCn1nc(Cl)c2c1-c1cnc(N)c(c1)O[C@H](C)c1cc(F)ccc1-c1nn(C)cc1C2` has an IC50 of 485 nM (Ephrin type-B receptor 1 (EPHB1, Homo sapiens, UniProt P54762); enzyme activity, inhibitor, radiometric).
With `O=C(Cn1ncc2cccn2c1=O)NC(c1ccccc1)c1ccccc1` the IC50 was 38900 nM (VKORC1; carboxylation, inhibitor, cell-based).
The IC50 of `COC(=O)Cc1cc2c(cc1C(=O)c1ccccc1)OCO2` is reported as 5910 nM (Gria2; ion current, patch clamp).
For `Cc1nc2c(F)cc(-c3nc(Nc4ccc(CC(=O)NCCCCCC(=O)NO)cc4)ncc3F)cc2n1C(C)C`, the IC50 was 1.1 nM (CDK4).
`CC(C)C[C@H](NC(=O)[C@@H](CCCCNC(=O)[C@@H](Cc1ccccc1)NC(=O)CCNC(=O)CN1CCN(CC(=O)O)CCN(CC(=O)O)CCN(CC(=O)O)CC1)NC(=O)[C@H](Cc1ccc(O)cc1)NC(=O)[C@H](CO)NC(=O)[C@H](Cc1c[nH]c2ccccc12)NC(=O)[C@H](Cc1c[nH]cn1)NC(=O)[C@@H]1CCC(=O)N1)C(=O)N[C@@H](CCCNC(=N)N)C(=O)N1CCC[C@H]1C(=O)NCC(N)=O` has an IC50 of 13.5 nM (Gonadotropin-releasing hormone receptor (GNRHR, Homo sapiens, UniProt P30968); ligand displacement, radioligand; pH 7.4, cell membranes).
For `O=C(O)CCNC(=S)NCCCC[C@H](NS(=O)(=O)c1cccc(F)c1)C(=O)N[C@@H](Cc1c[nH]c2ccccc12)C(=O)NC1CCC1`, the IC50 was 53 ± 3 nM (SIRT5; enzyme activity, inhibitor).
`O=C(CN1CN(c2ccccc2)C2(CCN(C(=O)c3ccc4[nH]ncc4c3)CC2)C1=O)Nc1ccncc1` gave an IC50 of 54700 nM (DDR2; ligand displacement).
With `CC(C)c1ccc(/C=C/C(=O)c2ccc(O)cc2)cc1` the IC50 was 1590 nM (MAOA; enzyme activity, inhibitor).
The IC50 of `O=C(Cn1ncc2cccn2c1=O)N1CCOCC1` is reported as 91600 nM (VKORC1; carboxylation, inhibitor, cell-based).
The IC50 of `N=C(N)NCCC[C@H](NC(=O)[C@H](CCCCNC(=S)NCCC(=O)O)NS(=O)(=O)c1cccc(F)c1)C(=O)NC1CCC1` is reported as 74 ± 5 nM (SIRT5; inhibitor, fluorogenic; 0 h preincubation, non-tagged enzyme 150 nM, with: NAD+ 500 µM).
The IC50 of `Clc1cc(Cl)cc(CNCCCNc2nc3ccccc3[nH]2)c1` is reported as 157 nM (MARS2; enzyme activity, inhibitor).
For `O=C(NCC(F)(F)c1ccc(Cl)cc1Cl)c1cc(Cl)nnc1Oc1cccc(C2CC2)c1`, the IC50 was 4 ± 1000 nM (serine palmitoyltransferase (Botrytis cinerea, UniProt A0A384JAG3+A0A384JQT2)).
The IC50 of `O=C1Nc2c(Br)cccc2/C1=C1/Nc2ccccc2C1=NO` is reported as > 10000 nM (Ephrin type-A receptor 4 (EPHA4, Homo sapiens, UniProt P54764)).
`CCN(CC)CC(=O)Nc1cccc(-n2cc(-c3ccc4ccc(-c5cn(-c6cccc(NC(=O)CN(CC)CC)c6)nn5)cc4c3)nn2)c1` gave an IC50 of > 10000 nM (MAPKAPK5; enzyme activity, inhibitor).
`Cc1nc2c(F)cc(-c3nc(Nc4cccc(NC(=O)CCCCCCC(=O)NO)c4)ncc3F)cc2n1C(C)C` gave an IC50 of 2.3 nM (CDK4).
For `CC(C)(COP(=O)(O)OP(=O)(O)OC[C@H]1O[C@@H](n2cnc3c(N)ncnc32)[C@H](O)[C@@H]1OP(=O)(O)O)[C@@H](O)C(=O)NCCC(=O)NCCSCC(=O)N[C@@H](CO)C(=O)NCC(=O)N[C@@H](CCCNC(=N)N)C(=O)NCC(=O)N[C@@H](CCCCN)C(N)=O`, the IC50 was 116 nM (N-alpha-acetyltransferase 40 (NAA40, Homo sapiens, UniProt Q86UY6); enzyme activity, inhibitor, fluorescence).

Excerpt of the above:
The IC50 of `C[C@H]1CN(c2cc(=O)n(C)c3ccc(C#N)nc23)[C@@H](C)CN1Cc1ccc(S(=O)(=O)n2cnc(C3CC3)n2)cc1` is reported as 2320 nM (Diacylglycerol kinase alpha (DGKA, Homo sapiens, UniProt P23743); inhibitor, ADP-Glo; with: DAG micelles).
`COC(=O)CCCC(=O)NCc1ccc(Nc2ncc(F)c(-c3cc(F)c4nc(C)n(C(C)C)c4c3)n2)cc1` has an IC50 of 1.2 nM (CDK4).
The IC50 of `O=C(O)Cc1cc2c(cc1C(=O)c1ccc(Cl)cc1Cl)OCO2` is reported as 3730 nM (Gria2; ion current, patch clamp).
For `C[C@@H](CNCc1cc(Cl)cc(Cl)c1)CNc1nc2nc(F)ccc2[nH]1`, the IC50 was 19.5 nM (MARS2; enzyme activity, inhibitor).
`Cc1nc2c(F)cc(-c3nc(Nc4ccc(C(=O)NCCCCCCCC(=O)NO)cc4)ncc3F)cc2n1C(C)C` has an IC50 of 1.6 nM (CDK4).
`O=C(CN1CN(c2ccccc2)C2(CCN(C(=O)c3ccc4[nH]ncc4c3)CC2)C1=O)NCCN1CCOCC1` has an IC50 of 1640 nM (DDR2; ligand displacement).
`CC1(C)C(=O)N=C2C1=C(O)C(=O)c1ccccc12` gave an IC50 of > 100000 nM (Protein arginine N-methyltransferase 1 (PRMT1, Homo sapiens, UniProt Q99873); enzyme activity, inhibitor).
